Published values collected from several papers.
Each line is one published result; not all experiments were run side by side. Numbers after ± are the reported error.

`Cc1cc(/C=C2\Oc3cc(OCC4CC4)ccc3C2=O)cc(C)c1OC(C)(C)C(=O)O` — result for mRNA level: “decreased” (RT-PCR, item: ANGPTL3, Apo C-III; db/db mice, MCD diet-fed, liver; 30 mg/kg; relative to: model group).
`CC(=O)[C@H]1[C@H](C#N)C[C@H]2[C@@H]3CC=C4C[C@@H](O)CC[C@]4(C)[C@H]3CC[C@@]21C` — result for mRNA level: “increased” (qPCR, item: Oatp2; wild-type mice, liver; 10 mg/kg, 3 days; relative to: vehicle).
`Cn1cc(-c2ccc(-c3cncc(Cl)c3N3CCC4(CCNC4=O)CC3)cc2)cn1`: “log2 fold change” 2.04 (COLO 205; gene expression, microarray, item: CLHC1 mRNA; concentration not given, 2 h; relative to: untreated cells).
Under mRNA level, `N#Cc1ccc2c(CN3CCOCC3)cc(-c3ccc([C@H]4CCC(=O)N4)cc3)nc2c1` is recorded as “decreased” (decreased, item: Tnf; BTBR ob/ob mice, male, diabetic wound model, wound tissue; dose not given, 21 days; relative to: vehicle).
`O=C(NOC1Cc2ccccc2C1)c1c(-c2ccc3ccccc3c2)nc2occn12` — result for mRNA level: “increased” (inducer, item: Cyp2b10; hCAR transgenic male mice, liver; intraperitoneal, 10 mg/kg, 24 h).
With `Cc1cc(O)c2c(c1)C(=O)c1cccc(O)c1C2=O` the viability was 48.3 ± 18% (HK-2 co-cultured with HepaRG; MTT; 133.33 µM, 48 h; relative to: untreated control).
`CCc1c(C)nc(-c2ccc(Cl)s2)nc1Nc1ccc(CC(=O)O)cc1`: mRNA level “increased” (item: PDE4A; C57BL/6J mice, MCD diet, liver; intraperitoneal, 0.3 mg/kg daily, MCD diet 6 weeks, dosed last two; relative to: vehicle).
For `C=C1CC[C@H](OCCCNC(=O)CCOCCOCCOCCOCCOCCOCCOCCOCCOCCOCCOCCOCCOCCOCCOCCOCCOCCOCCOCCOCCOCCOCCOCCOCCOCCOCCOCCOCCOCCOCCOCCOCCOCCOCCOCCOCCNC(=O)CCN2C(=O)CC(SC[C@H](NC(=O)[C@H](CCCNC(=N)N)NC(=O)[C@@H]3CCCN3C(=O)[C@H](CCC(N)=O)NC(=O)[C@H](CC(C)C)NC(=O)[C@H](CCCCN)NC(=O)[C@H](C)NC(=O)[C@@H]3CCCN3C(=O)[C@@H]3CCCN3C(=O)[C@H](CCCCN)NC(=O)[C@H](CCCCN)NC(=O)[C@H](CO)NC(=O)[C@H](CCC(=O)O)NC(=O)[C@H](CCCCN)NC(=O)[C@H](CCCNC(=N)N)NC(=O)[C@H](CCC(N)=O)NC(=O)[C@H](CCC(N)=O)NC(=O)[C@@H](NC(=O)[C@H](CCCNC(=N)N)NC(=O)[C@H](CCC(N)=O)NC(=O)[C@H](Cc3c[nH]cn3)NC(=O)[C@H](CCC(=O)O)NC(=O)[C@@H]3CCCN3C(=O)[C@H](CO)NC(=O)[C@H](CC(C)C)NC(=O)[C@H](Cc3ccccc3)NC(=O)[C@H](CNC(=O)CCCCCCC)NC(=O)[C@H](CO)NC(=O)CN)C(C)C)C(=O)O)C2=O)C/C1=C/C=C1\CCC[C@]2(C)[C@@H]([C@H](C)CCCC(C)(C)O)CC[C@@H]12` (some centres unmarked), mRNA level read “no effect” (real-time RT-PCR, item: Tnf and Ccl2; mice, LLC tumour-bearing, tibialis anterior; daily or every other day; relative to: tumour-bearing vehicle).
Under mRNA level, `CC(=O)Nc1c(F)cc(C(=O)N[C@H]2CC[C@H](O)CC2)cc1O[C@@H](C)c1ccccc1` is recorded as “no effect” (liver inflammation, qPCR, item: Ccl2 and Cxcl2; mice, APAP liver injury, liver; oral, 30 mg/kg, 12 h, together with: APAP 500 mg/kg intraperitoneal).
`COc1cc(O)c2c(c1)C(=O)c1cc(C)cc(O)c1C2=O` has a viability of 76.8 ± 5.78% (HK-2 co-cultured with HepaRG; MTT; 133.33 µM, 48 h; relative to: untreated control).
For `CSc1ccc(C(=O)/C=C/c2cc(C)c(OC(C)(C)C(=O)O)c(C)c2)cc1`, mRNA level read “no effect” (RT-PCR, item: ACADL, CPT1α; db/db mice, MCD diet-fed, liver; 30 mg/kg; relative to: model group).

For quick reference, copied from above:
Under mRNA level, `N#Cc1ccc2c(CN3CCOCC3)cc(-c3ccc([C@H]4CCC(=O)N4)cc3)nc2c1` is recorded as “decreased” (decreased, item: Tnf; BTBR ob/ob mice, male, diabetic wound model, wound tissue; dose not given, 21 days; relative to: vehicle).
